Measurements pooled from the literature.
Lines come from different studies, so protocols differ. Numbers after ± are the reported error.

CCCC[C@H](NC(=O)[C@H](Cc1ccccc1)NC(=O)[C@H](Cc1c[nH]cn1)NC(=O)C[C@@H](NC(=O)[C@@H](NC(=O)[C@H](C)NC(=O)[C@H](Cc1c[nH]c2ccccc12)NC(=O)[C@H](CCC(N)=O)NC(=O)[C@H](N)Cc1ccc(O)cc1)C(C)C)c1ccccc1)C(N)=O
EGFR tyrosine phosphorylation (NCI-H1299 expressing BRS-3; EGFR transactivation, Western blot; 100 nM): increased

CN1CCN(C(=O)N(CCCCCCC(=O)NO)c2ccc(-c3ccc4cnn(C)c4c3)cc2)CC1
sub-G1 cells (MM1.S; flow cytometry, propidium iodide; 300 nM, 24 h): 22.6 ± 1.43%

CC(=O)OC[C@H]1O[C@@H](Sc2sc(C(=O)c3ccc(Br)cc3)c(N)c2-c2nc3ccccc3s2)[C@H](OC(C)=O)[C@@H](OC(C)=O)[C@@H]1OC(C)=O
growth (Hs-578T; SRB; 10 µM, 48 h; baseline: untreated): 93.8%

CCNc1cc2c(cc1C)C1(c3cc(C)c(NCC)cc3O2)c2ccccc2C(=O)N1N=Cc1c[c-]c(-c2ccccn2)cc1.Cc1c(C)c(-c2ccc(-c3ccccc3)cc2)[c-](C)c1C.[Cl-].[Ir+3]
apoptotic cells (A549; annexin V/PI; 3 x IC50, 24 h): 96.7%

CC(Cc1ccc(Cl)cc1)=C(c1ccc(Cl)cc1)c1ccc(OCCN(C)C)cc1
GI50 (SF-539; cell growth or viability, SRB): 4.77 µM

COc1ccc([C@@H]2CC(=O)c3c(O)cc(O[C@@H]4O[C@H](CO[C@@H]5O[C@@H](C)[C@H](O)[C@@H](O)[C@H]5O)[C@@H](O)[C@H](O)[C@H]4O)cc3O2)cc1O
invasion (A549; Matrigel Transwell invasion; 100 µg/mL, 24 h): 47.1 ± 5.6%

O=C1Nc2ccc(Cl)cc2C1=Cc1c(Cl)[nH]c2c1ccc1ccccc12
TGI (melanoma subpanel of NCI-60; 48 h): 11.2 µM

COc1cc(CNC(=O)C[C@H](C)CCC=C(C)C)ccc1OCc1cn(-c2ccc(Cl)c(Cl)c2)nn1
growth percent (SK-MEL-2 melanoma cells; SRB; 10 µM, 48 h): 93.7%

COc1cc(O)cc2c1-c1ccc(O)c(OC)c1CC2
cytokine release (BV-2; ELISA, measured: TNF-α; concentration not given, pretreatment, added: LPS): decreased

COc1ccc(NC(=O)CCc2nc3cc(Cl)ccc3[nH]c2=O)cc1
BCL2 level (unspecified cells; concentration not given, unit not given; baseline: untreated control): 0.45

CC(=O)N[C@H](C(=O)N[C@H](C(=O)N[C@@H](CCCNC(=N)N)C(=O)N1Cc2ccccc2C[C@H]1C(=O)N[C@@H](Cc1ccccc1)C(N)=O)C1CCCCC1)C(C)C
cytokine level (MBP-specific BC-3 T cells; Bio-Plex multiplex, measured: IP-10; 200 µg/mL, 24 h, added: MBP87-99 antigen): 283 ± 302 pg/mL

COc1cc(CNC(=O)C[C@H](C)CCC=C(C)C)ccc1OCc1cn(-c2ccc(C#N)cc2)nn1
growth percent (SF-539 CNS cancer cells; SRB; 10 µM, 48 h): 59.7%

COc1cccc2c1C(=O)c1c(O)c3c(c(O)c1C2=O)CC(O)(C(=O)CO)CC3OC1CC(NC(=O)CCC2=C(C)C(=O)C=C(C(C)C)C2=O)C(O)C(C)O1 (stereo not shown)
intracellular ROS level (human dermal fibroblasts; DCFDA fluorescence; concentration not given, 4 h; baseline: DMSO): increased

COc1cc(CNC(=O)C[C@H](C)CCC=C(C)C)ccc1OCc1cn(-c2cccc(Cl)c2)nn1
growth percent (SK-MEL-2 melanoma cells; SRB; 10 µM, 48 h): 95.5%

CCCC(CCC)C(=O)[O][Pt]([NH2])([NH2])([Cl])([Cl])[O]C(=O)C(C)c1ccc(CC(C)C)cc1 (stereo not shown)
resistance factor (C13 and 2008; cytotoxicity, MTT; baseline: IC50 C13 over IC50 2008): 1.2

COc1ccc([C@@H]2CC(=O)c3c(O)cc(O[C@@H]4O[C@H](CO[C@@H]5O[C@@H](C)[C@H](O)[C@@H](O)[C@H]5O)[C@@H](O[C@H]5O[C@H](CO)[C@@H](O)[C@H](O)[C@H]5O)[C@H](O)[C@H]4O)cc3O2)cc1O
gap closure (A549; cell migration, scratch; 50 µg/mL, 48 h): 7.3 ± 1.57%

O=C(N1CCCC1)n1cc(-c2ccc(-c3ccccc3)cc2)nn1
SILAC ratio (mouse T-cells; N-terminal labeled proteins, N-terminal enrichment proteomics, measured: ARHGEF2; 1 nM, 6 h; baseline: DMSO): 1.18 ± 0.13

CCCCCCCCN(CCC(=O)Nc1ccccc1)C(=O)c1ccccn1
optimal concentration (Lmna G609G/G609G mouse fibroblasts; cell proliferation, MTT; 72 h): 2 µM

COc1cc(CNC(=O)C[C@H](C)CCC=C(C)C)ccc1OCc1cn(-c2ccccc2)nn1
growth percent (U-251 CNS cancer cells; SRB; 10 µM, 48 h): 93.8%

O=C1NCC(Cc2ccccc2)N(CC2CCCN2CC(CC2CCCCC2)N2CC(Cc3ccc(O)cc3)N(CCc3ccccc3)C(=O)C2=O)C1=O (stereo not shown)
decrease in dual-activated cells (WM 266-4; MAPK and PI3K activation, flow cytometry; concentration not given, 48 h; baseline: untreated): ~20%

COc1cc(C(=O)c2[nH]c(N)nc2-c2cccs2)cc(OC)c1OC
mitotic index (HeLa cells; Hoechst staining; 200 nM): 23 ± 2.2

C=CC(=O)Oc1ccc(Cl)cc1C(=O)Nc1ccc([N+](=O)[O-])cc1Cl
PSA level (C4-2B MDVR cells; ELISA; 1 µM, 48 h, FBS conditions): decreased

CCN(CC)CCNC(=S)Nc1ccc2nc(N3CCN(CC)CC3)cc(C)c2c1
foci-positive cells (BCR-ABL1+ BRCA1-deficient 32Dcl3; measured: GFP-RAD52 foci; 2.5 µM, added: cisplatin): 17 ± 1%

COc1cc(CNC(=O)C[C@H](C)CCC=C(C)C)ccc1O
growth percent (SK-MEL-2 melanoma cells; SRB; 10 µM, 48 h): 102%

CC(=O)OC[C@H]1O[C@@H](Sc2sc(C(=O)c3ccc(C)cc3)c(N)c2-c2nc3ccccc3s2)[C@H](OC(C)=O)[C@@H](OC(C)=O)[C@@H]1OC(C)=O
growth (SK-MEL-2; SRB; 10 µM, 48 h; baseline: untreated): 93.6%

CC[C@@]12CC(O)c3[nH]c4ccccc4c3CCN(C[C@H]3O[C@H]31)C2 (stereo partly shown)
inhibition (BV-2; NO production; 25 µM, 1 h, 24 h stimulation, added: LPS 800 ng/mL; baseline: LPS control): 50 ± 4.7%

CC/C=C\C/C=C\C/C=C\C/C=C\C/C=C\C/C=C\CCC(=O)Nc1ccn(C2OC(CO)C(O)C2(F)F)c(=O)n1 (stereo not shown)
GI50 (SK-MEL-2; cell growth or viability, SRB): 13.2 µM

Cn1cnnc1Sc1c2c(c(C#N)c3nc4ccccc4n13)CCCC2
aggregation and ATP secretion (Ero1α/β-null mouse platelets; 5 µM, added: 0.015 U/mL thrombin): no effect

O=Cc1c(O)ccc2ccccc12
log2 fold change (HUVEC; RNA sequencing, measured: EXO1; 75 µM, 24 h; baseline: DMSO): -3.3

CCNS(=O)(=O)c1ccc(COc2ccc3nc4ccc(=O)cc-4oc3c2)cc1
cell proliferation (BT-549; 1 µM): no effect

COc1cc(/C=C/C(=O)O)ccc1O
inhibition (BV-2; TNF-α release, inhibitor, ELISA; 5 µM, LPS-stimulated): 68.3%

COc1cc(CNC(=O)C[C@H](C)CCC=C(C)C)ccc1OCc1cn(-c2ccccc2[N+](=O)[O-])nn1
growth percent (U-251 CNS cancer cells; SRB; 10 µM, 48 h): 62.8%

COC(=O)c1ccccc1-c1c2ccc(=O)cc-2oc2cc(OCCCCCCCC[P+](c3ccccc3)(c3ccccc3)c3ccccc3)ccc12
Pearson coefficient (HeLa cells; confocal microscopy; added: MitoTracker Deep Red): 0.884 ± 0.006

CC[C@H](C)[C@H](NC(=O)[C@H](Cc1c[nH]cn1)NC(=O)[C@H](Cc1ccccc1)NC(=O)[C@@H](NC(=O)[C@H](C)NC(=O)[C@H](CC(N)=O)NC(=O)[C@H](Cc1c[nH]c2ccccc12)NC(=O)[C@@H](NC(=O)CNC(=O)CNC(=O)[C@H](CCCNC(=N)N)NC(=O)[C@H](CCCNC(=N)N)NC(=O)[C@H](CCCNC(=N)N)NC(=O)[C@H](CCC(N)=O)NC(=O)[C@H](CCCNC(=N)N)NC(=O)[C@H](CCCNC(=N)N)NC(=O)[C@H](CCCCN)NC(=O)[C@H](CCCCN)NC(=O)[C@H](CCCNC(=N)N)NC(=O)CNC(=O)[C@@H](N)Cc1ccc(O)cc1)C(C)C)[C@@H](C)O)C(=O)N[C@@H](Cc1c[nH]c2ccccc12)C(=O)N[C@@H](Cc1c[nH]cn1)C(=O)N[C@@H](CC(=O)O)C(N)=O
cells with small Htt103Q aggregates (HeLa expressing CFP-Htt103Q; 10 µM): decreased

O=C1/C(=C/c2ccc(O)c(O)c2)Oc2c1c(O)cc(O)c2-c1ccc(O)c(O)c1
viability (L02; MTT; 10 µM, 2 h, added: H2O2 100 µM; baseline: untreated): 78.1%

O=C1Nc2ccccc2/C1=N\Nc1nnc2n1N=C(c1ccc(Cl)cc1)CS2
inhibition (SF-539; cell growth or viability, SRB; 10 µM): 13%

COc1cc(CNC(=O)C[C@H](C)CCC=C(C)C)ccc1OCc1cn(-c2ccc(F)cc2)nn1
growth percent (RPMI-8226 leukaemia cells; SRB; 10 µM, 48 h): 75.3%

NC(=O)[C@@H](O)C[C@H]1CCc2sc3ncnc(O[C@H]4CC[C@H](N5CCOCC5)CC4)c3c21
viability (GCB DLBCL lines, wild-type MYD88; concentration not given, 4 d): no effect

COc1cc(CNC(=O)C[C@H](C)CCC=C(C)C)ccc1OCc1cn(-c2ccc([N+](=O)[O-])cc2)nn1
growth percent (U-251 CNS cancer cells; SRB; 10 µM, 48 h): 82.8%

O=C(CCCCC1SCC2NC(=O)NC21)NCCCCC1CNC(=O)C(=O)N1CC1CCCN1CC(CC1CCCCC1)N1CC(Cc2ccc(O)cc2)N(CCc2ccccc2)C(=O)C1=O (stereo not shown)
lamin A/C cleavage (WM 266-4; western blot, measured: cleaved lamin A/C; 100 µM, 24 h): no effect

Some of these lines once more:
NC(=O)[C@@H](O)C[C@H]1CCc2sc3ncnc(O[C@H]4CC[C@H](N5CCOCC5)CC4)c3c21
viability (GCB DLBCL lines, wild-type MYD88; concentration not given, 4 d): no effect

COc1ccc([C@@H]2CC(=O)c3c(O)cc(O[C@@H]4O[C@H](CO[C@@H]5O[C@@H](C)[C@H](O)[C@@H](O)[C@H]5O)[C@@H](O)[C@H](O)[C@H]4O)cc3O2)cc1O
invasion (A549; Matrigel Transwell invasion; 100 µg/mL, 24 h): 47.1 ± 5.6%

CCCC(CCC)C(=O)[O][Pt]([NH2])([NH2])([Cl])([Cl])[O]C(=O)C(C)c1ccc(CC(C)C)cc1 (stereo not shown)
resistance factor (C13 and 2008; cytotoxicity, MTT; baseline: IC50 C13 over IC50 2008): 1.2

Cn1cnnc1Sc1c2c(c(C#N)c3nc4ccccc4n13)CCCC2
aggregation and ATP secretion (Ero1α/β-null mouse platelets; 5 µM, added: 0.015 U/mL thrombin): no effect

COc1cc(CNC(=O)C[C@H](C)CCC=C(C)C)ccc1OCc1cn(-c2ccc([N+](=O)[O-])cc2)nn1
growth percent (U-251 CNS cancer cells; SRB; 10 µM, 48 h): 82.8%
